# Measurements of several laboratories.
# Every numbered part comes from another study and shows a few of its results, in no order. Positions count from the first letter of the parent shown.

# Study 1
# Target: Interferon regulatory factor 5, full length, phosphomimetic (IRF5, Homo sapiens, UniProt Q13568-2, residues 1-514, K96S/S451D/S453D/S456D/S462D)
# Method: protein-binding microarray
# Molecule type: double-stranded DNA, one strand shown
# Matrix: in vitro
# Concentration: 250 nM
# Setting: 60-bp whole probe
# Together with: salmon DNA 0.4 mg/ml
# Baseline: random background probes
# Direction: higher = stronger binding
# Constant ends, left off below: GCCTAGCAC … GTCTTGATTCGCTTGACGCTGCTG
Oligonucleotide,log fluorescence
TTAGATTTCGGGAGTGGATTAGTGCTA,2.73 z-score
TCATGCTTAGTATTTTTTACTGTGCTA,0.669 z-score
TTTTTTTTTTTTTTGGAATGGTGCTAG,1.25 z-score
TCATGATTACATATATGACTGTGCTAG,0.227 z-score
TGGTCTCTAGTTAGAGAACTGTGCTAG,0.0701 z-score
TTTTTTTTATCAATCATTTTGTGCTAG,1.62 z-score
GACGGTTTTCTTATCCTGACGTGCTAG,0.558 z-score
GACGATCTCAGACTGGAGGCGTGCTAG,-0.488 z-score
TTAGGTTTCGGTATTGGTTAGTGCTAG,10.2 z-score
GTAGGACTGGGGTTTCGGTTAGTGCTA,6.66 z-score
TTAGGTTTCGGAATGGGTTAGTGCTAG,7.52 z-score
TCAATATTGAGACTCATACTGTGCTAG,0.41 z-score
GTTCAAAGTCCTACGGCTTCGTGCTAG,-0.419 z-score
TCATCTGTCATGTTTGTCACTGTGCTA,0.562 z-score
TTAGATTTCGGGACTGGGTTAGTGCTA,2.28 z-score
GCATTTTTTTTTTCTACTTCGTGCTAG,1.02 z-score
TTAGGACTGGACTATCAGTTAGTGCTA,0.839 z-score
TTAGGAATGCTTCTCCTTTAGTGCTAG,-0.355 z-score
ATCTCTGTCCGTGCTCAGCTCGTGCTA,-0.216 z-score
TTAGATATCGTGACTGGATTAGTGCTA,0.511 z-score
TCAGTTCTCCCTTTCAGACTGTGCTAG,0.577 z-score
TTAGCTTTCGGGTATCGATTAGTGCTA,10.4 z-score
TCAAAAAATGATTGGTTACTGTGCTAG,0.434 z-score
GACGGACTGGGTCTCGGGCCGTGCTAG,-0.899 z-score
TATCAGTAGGTAAGGAAAAGGTGCTAG,5.02 z-score

# Study 2
# Target: RING finger protein unkempt homolog, zinc fingers 1-6, GST-SBP tag (UNK, Homo sapiens, UniProt Q9C0B0, residues 30-357)
# UniProt Q9C0B0, sequence (30-357, looked up): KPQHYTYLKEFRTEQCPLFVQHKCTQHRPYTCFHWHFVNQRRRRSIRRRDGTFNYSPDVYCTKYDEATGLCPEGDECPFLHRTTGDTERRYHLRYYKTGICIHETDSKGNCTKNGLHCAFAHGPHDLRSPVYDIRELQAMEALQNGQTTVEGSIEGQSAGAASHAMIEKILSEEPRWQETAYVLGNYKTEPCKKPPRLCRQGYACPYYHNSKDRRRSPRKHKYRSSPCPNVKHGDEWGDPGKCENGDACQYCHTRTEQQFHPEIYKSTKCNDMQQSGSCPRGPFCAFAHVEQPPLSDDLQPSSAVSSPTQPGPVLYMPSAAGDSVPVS
# Method: RNA Bind-n-Seq
# Molecule type: RNA
# Matrix: in vitro
# Concentration: not given
# Setting: RNA with constant flanks, human-mouse chimeric sites, ends assumed
# Baseline: input RNA pool
# Direction: higher = stronger binding
# Constant ends, left off below: GGGAGUUCUACAGUCCGACGAUC … CAACAGAGGAUUGAGCAUCA
Oligonucleotide,bound/input enrichment [ratio]
GUAAUGGACGUCAACACUGCUUUACAAGAGGUGCUGAAGACCGCCCUCAUCCACGAUGGCCUAGCACGUGGAAUUCGCGAAGCUGCCAAAGCCUUAGACAAGCGCCAAGCCCAUCUGUGU,0.678
UAAGUCCUGUGCCAGCAAUUUAUCCCAAAAGUUUUAAAUUCUGGACCAAUAGUGUUUAUCUUUAGAAUAUUGUAUCCAAUACUUUGCCUAGUAUGUAACUCACUCUUACUGAUAAUAAAA,23.6
UCCCAAAUCCAGCAGCUAGAAGGAGCCUUGAGACAAAGCCUGGAAAUACAGGGAAGGCGAUAACAUUGUACAUUGGUUUACAUUUUUUCCCCCUGUGGAUUUUUCUAGAGGUCAUAGUGC,0.511
ACUCAGAGAUCCACCUCCCAAAGUGCUGGGAGUAAAGUCUGAUAUUACACACCUAACUUGAUGGAUAUAUAUUUUUUUUAAUAUGAAUGAACUCUUGCGUCCAGGGAAGAAAGAUUUGUU,0.499
AACUUCGUACAUAGAUUUCCUUUUGUAGCUGUUUCAAUUGGCUUCCUUGUGAAUAAAGAGAUGGAGUUUGGAAUUGUGUACAGCUGUGUGGAAGAUAAGAUGUACACCGGCAGGAAAGGG,0.964
GCAAAGGAUGAUGAGGCGGCAGCUGUUGCACUUUCCUCUCUCGUUCAUGCUUUGGAUGAGUUAAACAUGGUCGCCAUAGUUCGAUAUGCUUAUGACAAAAGAUCUAAUCCUCAAGUUGGU,0.178
CUGGCCUGGCCCUCCCCAGGGGCCUCCUUUCGUAUAGUCACUGCUUCUGCUACGGAUACUUUCAGCUGCAACUCCCUGCAGGGUGGGGCACCCAUUUCAGGCAGAAGGUUUUGGUACCCU,0.337
CUGUGUGUGCUGAAUAAAUGGCUUGUAAAGAAGUUUUCCAAGUUGUAAACCCAUGCUGUUAUUAUAGUUGCUGCAAAAUGUUCUUCCUAUUGAUGUUUUUAUUUGUUAACUGAAGGUCUC,0.336

# Study 3
# Target: Sal-like protein 4, full length isoform B (SALL4, Homo sapiens, UniProt Q9UJQ4-2, residues 1-616)
# Method: universal PBM
# Molecule type: double-stranded DNA, one strand shown
# Matrix: in vitro
# Concentration: not given
# Setting: 8-mer, flanks averaged, mean of replicates
# Direction: higher = stronger binding
Oligonucleotide,E-score
AATGCGGG,-0.0755
GAGTAATA,0.341
CCCATGCG,-0.22
CCTCCCAA,-0.177
CAGAGTCG,-0.252
CTTGCCAA,0.0306
AGGATCCG,-0.233
TATTCGCA,0.165
ATGTGAAC,0.102
AGCACCCT,-0.241
GGTAGTAC,-0.0819
GACGTTGA,-0.0781
CGGAGGTA,-0.109
ACTCGCAC,-0.293
ATTGGAGA,0.233
CCAAGCGA,-0.157
GTAACATA,0.217
CCTGGGCG,-0.313
CAAAGCCG,0.0187
GAGTTGAA,0.0335
ATGACTAG,0.145
CTCGACTC,-0.119
GAGGTCAA,-0.0713
AGTCTGCA,-0.107
CTTCTGTC,-0.0313

# Study 4
# Target: CCNB1, cyclin fold, Cln2 fusion (human)
# Method: yeast growth competition, sequencing
# Matrix: yeast
# Setting: strong parent motif
# Baseline: not given
# Direction: higher = stronger binding
# Parent: PKN2 docking peptide (human); VSAVRKLDFSDTM
Variant,normalised enrichment score
F9D,-0.102
A3S,1.44
T12R,3.15
V4L,0.44
F9M,0.595
S10W,2.23
S10P,2.95
F9P,0.05
L7E,-0.345
D8L,1.07
F9E,-0.0585
K6N,0.792
K6D,0.168
F9Q,0.346
D8N,3.03
D11E,3.98
T12D,4.45
T12H,3.78

# Study 5
# Target: ABI1, truncated, D143A, DHFR fusion (Arabidopsis thaliana)
# Method: DHFR PCA, deep sequencing
# Matrix: yeast
# Setting: methotrexate growth selection, single substitutions
# Together with: (+)-ABA 0.032 µM
# Baseline: wild-type fitted maximum
# Direction: higher = stronger binding
# Parent: PYL1, truncated, DHFR fusion (Arabidopsis thaliana); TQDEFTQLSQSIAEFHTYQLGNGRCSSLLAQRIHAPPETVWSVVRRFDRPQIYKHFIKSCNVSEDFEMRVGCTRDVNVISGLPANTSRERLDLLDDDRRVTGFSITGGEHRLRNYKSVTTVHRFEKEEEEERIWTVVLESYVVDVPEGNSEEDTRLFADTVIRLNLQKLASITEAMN
Variant,relative binding score [%]
A30V,13.3
Q19L,6.75
E14F,-4.1
R99F,70.4
N165W,6.48
I52R,3.98
E127F,27.3
K54G,-2.13
R45C,1.93
D3R,12
A175N,20.3
V78R,37.9
T160R,-2.64
T135A,-4.63

# Study 6
# Target: Histone acetyltransferase KAT6A, winged helix 1, GST fusion (KAT6A, Homo sapiens, UniProt Q92794, residues 1-85)
# Method: protein binding microarray
# Molecule type: double-stranded DNA, one strand shown
# Matrix: in vitro
# Concentration: not given
# Setting: 8-mer, flanks averaged, mean of 2 arrays, mostly near background
# Baseline: not given
# Direction: higher = stronger binding
# Residues (chain): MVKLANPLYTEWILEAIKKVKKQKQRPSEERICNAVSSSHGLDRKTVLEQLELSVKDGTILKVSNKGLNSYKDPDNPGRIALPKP
Oligonucleotide,E-score
ATGCGGTC,0.161
GTCGAGAA,-0.192
ATGCTTCA,-0.0973
CAGTACGA,-0.079
CGTTGCGC,0.37
ACAACGAT,0.0264
GGTGGGAA,-0.136
CTTCAAAG,-0.241
ACATACAT,-0.186
AGGTACTG,-0.143
CCATGACC,-0.0283
CACTAGGC,0.0365
ATAGCGTG,0.0797
AAGCCAGG,-0.22
CCTACTTC,-0.202
AATGGGTG,-0.35
AAGCTATT,-0.159
AGGCGGTG,0.0986
ACCCGGAG,0.202
ATGACTCG,-0.124
GATACGGA,0.164
CATAGACG,0.0251
AGAAATGG,-0.082
ACTGCGTC,0.159
CCAGTAAA,-0.13

# A few entries again (study 5):
Variant,relative binding score [%]
Q19L,6.75
E14F,-4.1
R99F,70.4
N165W,6.48
I52R,3.98
E127F,27.3
K54G,-2.13
R45C,1.93
D3R,12
A175N,20.3
V78R,37.9
T160R,-2.64
T135A,-4.63
